Values quoted from earlier work that unrelated publications cite.
Protocols differ between the studies behind these lines.

SMILES	system	setting	Cmax
O=C1c2cccc3c2[C@H](CCC3)CN1[C@@H]1CN2CCC1CC2	healthy volunteers, plasma	oral, dose not given, netupitant-palonosetron combination, together with: oral contraceptives	0.909 ng/mL
Cc1cn([C@H]2C[C@H](N=[N+]=[N-])[C@@H](CO)O2)c(=O)[nH]c1=O	plasma	concentration not given	4000 nM
Cn1c(=O)n(-c2ccc(C(C)(C)C#N)cc2)c2c3cc(-c4cnc5ccccc5c4)ccc3ncc21	nude mouse, PC-3M xenograft, plasma	50 mg/kg, 0.5 h	~1680 nM
NC(=O)N1c2ccccc2C=Cc2ccccc21	plasma	concentration not given	6430 nM
Clc1ccc(CCCOCCCN2CCCCC2)cc1	Swiss mouse, male, plasma	oral, 10 mg/kg	1500 nM
CNC(=O)c1cc(Oc2ccc(NC(=O)Nc3ccc(Cl)c(C(F)(F)F)c3)cc2)ccn1	human, plasma	concentration not given, total concentration	6200 nM
COc1cccc2c1c(O)c(C(=O)N(C)c1ccc(C(F)(F)F)cc1)c(=O)n2C	mouse, prostate cancer xenograft, plasma	concentration not given, required for optimal efficacy	> 10000 nM
CS(=O)(=O)CCNCc1ccc(-c2ccc3ncnc(Nc4ccc(OCc5cccc(F)c5)c(Cl)c4)c3c2)o1	patients, plasma	dose not given, total concentration	2300 nM
O=P(O)(O)C(Cl)(Cl)P(=O)(O)O	plasma	concentration not given	2770 nM
Cc1nc2cccc(OCC(C)(C)C(=O)NC(C)C)c2c(N)c1C(=O)O	rat	oral, 100 mg/kg/day, day 7	428 nM
COc1cc2c(Nc3ccc(Br)cc3F)ncnc2cc1OCC1CCN(C)CC1	patients, plasma	dose not given, total concentration	4260 nM
Cn1ncnc1[C@H]1c2n[nH]c(=O)c3cc(F)cc(c23)N[C@@H]1c1ccc(F)cc1	mouse	oral, dose not given	~200 nM
C[C@@H]1C[C@H]2[C@@H]3CCC4=CC(=O)C=C[C@]4(C)[C@@]3(F)[C@@H](O)C[C@]2(C)[C@@]1(O)C(=O)CO	plasma	concentration not given	230 nM
